Measured values of several laboratories.
A part holds a random share of what one study measured. Changes are numbered by the printed parent chain.
UniProt P9WI81, sequence (whole entry, looked up): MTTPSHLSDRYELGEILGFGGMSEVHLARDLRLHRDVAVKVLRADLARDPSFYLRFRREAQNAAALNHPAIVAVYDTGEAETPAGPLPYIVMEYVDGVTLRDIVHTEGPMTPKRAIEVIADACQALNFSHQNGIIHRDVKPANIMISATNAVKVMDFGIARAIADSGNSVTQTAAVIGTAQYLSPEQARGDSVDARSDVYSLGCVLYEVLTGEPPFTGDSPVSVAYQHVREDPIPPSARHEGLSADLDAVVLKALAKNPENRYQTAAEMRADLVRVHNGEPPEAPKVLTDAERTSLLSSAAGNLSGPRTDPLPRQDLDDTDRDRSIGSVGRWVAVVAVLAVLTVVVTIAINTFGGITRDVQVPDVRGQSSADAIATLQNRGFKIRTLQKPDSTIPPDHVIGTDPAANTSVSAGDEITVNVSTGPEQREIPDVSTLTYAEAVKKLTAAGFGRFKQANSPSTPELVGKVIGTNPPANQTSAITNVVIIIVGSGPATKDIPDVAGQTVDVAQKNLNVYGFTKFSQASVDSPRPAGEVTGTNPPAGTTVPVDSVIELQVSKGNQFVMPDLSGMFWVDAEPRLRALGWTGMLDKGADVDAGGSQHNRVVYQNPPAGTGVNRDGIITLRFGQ

Study 1
Target: Probable WRKY transcription factor 11, DNA-binding domain (WRKY11, Arabidopsis thaliana, UniProt Q9SV15, residues 228-325)
Technique: DNA-protein interaction ELISA
Form: double-stranded DNA, one strand shown
Medium: in vitro, bacterial lysate
Concentration: not given
Notes: whole dsDNA probe, crude lysate protein
Baseline: highest signal in screen
Reading: higher = stronger binding
Construct (chain): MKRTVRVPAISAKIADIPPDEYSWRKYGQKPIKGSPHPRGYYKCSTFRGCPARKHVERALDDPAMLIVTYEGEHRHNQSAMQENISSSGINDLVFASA
| Oligonucleotide | relative absorbance |
| --- | --- |
| AAAAAACACAGCATTAGGCTATCGGTAAAA | 16.1 % of maximum |
| AAAAAATCATCTCTATGTTATTGTTGAAAA | 14.4 % of maximum |
| AAAAAAGTTCGGGGCTTGGTTTGGAAAAAA | 17.9 % of maximum |
| AAAAAATGTCCATCTTGCGTCTGTATAAAA | 18.4 % of maximum |
| AAAAAAGCTAGTGCTGCCACCAACGTAAAA | 13 % of maximum |
| AAAAAAAGTTCCAGGTCCGATGCTCAAAAA | 16.7 % of maximum |
| AAAAAATCCATTCTTCGCGTTTATCCAAAA | 13.5 % of maximum |
| AAAAAAGCGCGAATTCTAGAACTATAAAAA | 14.1 % of maximum |

Study 2
Target: Transcription factor SOX-2, HMG box (Sox2, Mus musculus, UniProt P48432, residues 41-119)
UniProt P48432, sequence (41-119, looked up): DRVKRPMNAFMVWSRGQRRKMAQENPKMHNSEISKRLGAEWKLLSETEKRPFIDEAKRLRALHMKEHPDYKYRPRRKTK
Technique: Spec-seq
Form: double-stranded DNA, one strand shown
Medium: in vitro
Concentration: not given
Notes: whole probe, mean of replicates
Baseline: not given
Reading: lower = stronger binding
All sequences stand within: GAGTCGTCTCGTCAGCAC … CCGTAGAGCACTCAGGTC
| Oligonucleotide | relative binding energy |
| --- | --- |
| TGAGGTT | 0.771 ln ratio |
| CAATGTT | -0.672 ln ratio |
| CATCAAG | 0.23 ln ratio |
| AAGGGTT | 0.0301 ln ratio |
| CATTTGC | 0.168 ln ratio |
| CCCTGTT | 0.194 ln ratio |
| AAAAGTT | -1.44 ln ratio |
| CATACAG | -0.823 ln ratio |

Study 3
Target: Interferon regulatory factor 5, full length, phosphomimetic (IRF5, Homo sapiens, UniProt Q13568-2, residues 1-514, S451D/S453D/S456D/S462D)
Technique: protein-binding microarray
Form: double-stranded DNA, one strand shown
Medium: in vitro
Concentration: 940 nM top
Notes: 60-bp whole probe
With: salmon DNA 0.4 mg/ml
Baseline: random background probes
Reading: higher = stronger binding
All sequences stand within: GCCTAGCAC … GTCTTGATTCGCTTGACGCTGCTG
| Oligonucleotide | fitted relative affinity [z-score] |
| --- | --- |
| TTAGATATCGACTATCGGTTAGTGCTA | 0.597 |
| TCAAATCTGTGTTATTAAACTGTGCTA | 0.318 |
| GACGATATCAGACTTGAGACGTGCTAG | -0.781 |
| GACGTTATCCTTATCCTGACGTGCTAG | 0.551 |
| ACTCAGCTCCTCTTCCAGGCGTGCTAG | -0.0707 |
| TTAAGACTGGACTTTCGGTTAGTGCTA | 2.7 |
| TCACTTTCCAACTCTGTTACTGTGCTA | 0.936 |
| TCATATGTCCTGTCTACAACTGTGCTA | 0.543 |

Study 4
Target: CCNE2, cyclin fold, Cln2 fusion (human)
Technique: yeast growth competition, sequencing
Medium: yeast
Notes: strong parent motif
Baseline: not given
Reading: higher = stronger binding
Starting sequence: viral docking peptide; TSVRRALFTGGSD; partner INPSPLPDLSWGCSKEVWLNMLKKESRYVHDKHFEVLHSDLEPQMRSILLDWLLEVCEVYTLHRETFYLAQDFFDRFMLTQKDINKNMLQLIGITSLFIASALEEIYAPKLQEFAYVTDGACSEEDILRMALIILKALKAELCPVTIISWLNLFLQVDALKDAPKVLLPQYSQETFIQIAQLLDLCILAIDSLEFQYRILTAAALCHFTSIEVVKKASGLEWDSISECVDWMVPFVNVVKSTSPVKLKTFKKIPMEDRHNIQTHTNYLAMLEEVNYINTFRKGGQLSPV
| Change | normalised enrichment score |
| --- | --- |
| TSVRRAAFTGGSD [L7A] | 0.181 |
| TSVRRPLFTGGSD [A6P] | 0.271 |
| TSVRRALFTGGMD [S12M] | 3.7 |
| TSVRAAAFTGGSD [R5A L7A] | -0.0973 |
| TSVRRALFTKGSD [G10K] | 2.81 |
| TSVRRALFTPGSD [G10P] | 3.41 |
| TSVRIALFTGGSD [R5I] | 0.62 |
| TSVRRALFKGGSD [T9K] | 3.29 |
| TMVRRALFTGGSD [S2M] | 2.45 |
| TSVRRALFTGHSD [G11H] | 3.93 |
| TSVRRALFSGGSD [T9S] | 3.23 |
| TSVRRALHTGGSD [F8H] | 0.262 |
| TSVRRALFTGGFD [S12F] | 3.61 |
| TSVRRACFTGGSD [L7C] | 0.415 |
| TSVRRALFFGGSD [T9F] | 3.83 |
| TSVRRVLFTGGSD [A6V] | 5.55 |
| TSVRRHLFTGGSD [A6H] | 1.92 |
| TSVRRALFTGGPD [S12P] | 4.14 |
| TIVRRALFTGGSD [S2I] | 1.53 |
| TSVRKALFTGGSD [R5K] | 1.25 |
| TSVRRALFTGKSD [G11K] | 3.41 |
| TKVRRALFTGGSD [S2K] | 3.56 |
| THVRRALFTGGSD [S2H] | 4.07 |
| TSVRRTLFTGGSD [A6T] | 2.94 |
| TSVRRCLFTGGSD [A6C] | 3.41 |

Single results of other studies
| Structure (SMILES) | target | test | conditions | endpoint | value |
| --- | --- | --- | --- | --- | --- |
| CS(=O)(=O)N1CCCC(NC(=O)[C@H](CCC2CCCCC2)NC(=O)c2ccc(CNC(=O)c3cnc4ccccn34)cc2)C1 (some centres unmarked) | Serine/threonine-protein kinase PknB (pknB, Mycobacterium tuberculosis, UniProt P9WI81) | cell-free assay, competition with immobilised ligand | 0.1 µM | remaining binding | 100% |
